# Measurements from different studies.
# Numbered parts are unrelated; each lists some results of a single study.

# Study 1 — technique: protein-binding microarray; molecule type: double-stranded DNA, one strand shown; sample: in vitro; concentration: not given; reading: higher = stronger binding
# Target: Microphthalmia-associated transcription factor, full length (MITF, Homo sapiens, UniProt O75030-10, residues 1-413)
# Notes: k-mer, scored over probes, only values ≥0.25
Strand,E-score
TGTCACA,0.377
GCATGAC,0.428
CATGATA,0.364
CATGAGG,0.34
AACATGT,0.357
CCGTGAC,0.436
CACCTGC,0.277
ATCATGA,0.338
GTGACCA,0.376
GTCACAC,0.386
AAGTCAC,0.329
ACCCCAC,0.371
ACACACG,0.262
CGGGGTC,0.259
GGGTCAC,0.361
ACATGAC,0.413
GGATCAC,0.32

# Study 2 — technique: RNA Bind-n-Seq; molecule type: RNA; sample: in vitro; concentration: 365 nM; relative to: no-protein control; reading: higher = stronger binding
# Target: RNA binding protein fox-1 homolog 2, RRM domain, GST-SBP tag (RBFOX2, Homo sapiens, UniProt O43251-10, residues 100-194)
# Notes: natural RNA segment, single round, ends assumed
# Shared flanks, not repeated: GGGAGUUCUACAGUCCGACGAUC … UGGAAUUCUCGGGUGCCAA
# Residues (chain): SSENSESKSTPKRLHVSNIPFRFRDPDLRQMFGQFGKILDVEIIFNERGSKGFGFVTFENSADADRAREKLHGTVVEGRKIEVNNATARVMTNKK
Strand,RBNS enrichment (R)
UGAAACUCAUAGCAAUAAUGCUAUGCUGUUGUGAUCCCUCUCAAGUUCUGCAUUUAAAAUAUAUUUUUUCUUUAUAGGAAUUGAUGUAUACCAUGAAGUCAUUGUCAGUU,0.383
UCUGACACUAAAACACCUCAGCUGCCUCCCCAGCUCUAUCCCAACCUCUCCCAACUAUAAAACUAGGUGCUGCAGCCCCUGGGACCAGGCACCCCCAGAAUGACCUGGCC,0.886
CAGAUGAAAGCACAGUAGUAGCUGACAGCUGGCUUAUUUGGUCCCUCGGCAUCUCUCGUAUGUGGCAUAUUGCUUUUGCCACUUUCCUAUCCAGCAGACAUCAAAGCAAA,0.5
GAGACAUCUCCUUCCACCAUUCCCCACUUCUGCCACCUGCUGCUCUUCUCUGUCCUUAGUUGUGAGCUUCUCCAUGCUGUGCCAAUGGCUAGCCUUUUCUACACCCUCUU,1.32
UACUGGUGCCUGCUGCCAGCCAUCUGGGAGUGGGUGAACAGCACCCCGCCGCUUCCCCCACACGCUUGCUCGGCGCUCUGACUUCUAGGAGCACAAGAGAGGAGCCUGUG,0.186
AGCCACUGAGAGACUCCUUUGAGGGGGGUCACUGUGCUGUAGGUUAUUUUCCUCCACCCCACUUACUGUGAUGGGGCAAGGGAAGAACCCAGUCUUGUCCCCUGAAUUUU,0.228
UUUACCUCUGGGCUCAAUAAGGGCAUCUGUGCAGAAAUUUGGAAGCCAUUUAGAAAAUCUUUUGGAUUUUCCUGUGGUUUAUGGCAAUAUGAAUGGAGCUUAUUACUGGG,0.424
UAUUCUGUUCUUUAGUAUAACAGCAAGUAUAAUUAUGCCGAGUCCUGCCAUCAUAAGUAUGGAGUAAGCUAAAGGAUGACCGUUAUGCCCGUGUAGACAUAGUGUACUCA,0.427

# Study 3 — technique: protein-binding microarray; molecule type: double-stranded DNA, one strand shown; sample: in vitro; concentration: 2200 nM top; notes: 60-bp whole probe; with: salmon DNA 0.4 mg/ml; relative to: random background probes; reading: higher = stronger binding; shared flanks, not repeated: GCCTAGCAC … GTCTTGATTCGCTTGACGCTGCTG
# Target: Interferon regulatory factor 7, full length, phosphomimetic (IRF7, Homo sapiens, UniProt Q92985, residues 1-503, S471D/S472D/S475D/S476D/S477D/S483D/S484D/S487D)
# Chain of UniProt Q92985 (whole entry, unmodified, looked up): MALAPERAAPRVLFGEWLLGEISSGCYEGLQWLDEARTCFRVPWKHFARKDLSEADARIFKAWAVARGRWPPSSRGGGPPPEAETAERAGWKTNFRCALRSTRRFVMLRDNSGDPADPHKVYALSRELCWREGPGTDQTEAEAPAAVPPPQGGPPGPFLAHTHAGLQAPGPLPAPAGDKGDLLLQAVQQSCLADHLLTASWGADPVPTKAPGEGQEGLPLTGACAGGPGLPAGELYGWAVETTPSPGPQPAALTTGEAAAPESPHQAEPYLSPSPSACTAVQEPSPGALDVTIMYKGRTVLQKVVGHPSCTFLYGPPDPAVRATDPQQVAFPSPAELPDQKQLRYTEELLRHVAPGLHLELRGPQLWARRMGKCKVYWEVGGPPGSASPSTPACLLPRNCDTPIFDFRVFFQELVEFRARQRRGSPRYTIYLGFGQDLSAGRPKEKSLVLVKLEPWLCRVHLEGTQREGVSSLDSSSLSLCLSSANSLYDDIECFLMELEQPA
Strand,fitted relative affinity [z-score]
TAAGGTCTCGGTCTCGGTTAGTGCTAG,0.62
TTGGGACTGCTTCTCCTTTAGTGCTAG,0.765
TTAAGTCTCCTACTGCTTTAGTGCTAG,0.744
GACGGACTGGGGGTTCGGGACGTGCTA,0.0492
GACGGTATCGATCTCGGGACGTGCTAG,0.37
TTCGATTTCAGTTCCGATTAGTGCTAG,3.38
GACGGACTGGGGATCGGGACGTGCTAG,-0.919
ACAAATGGCCAACAAACATTGTGCTAG,-0.228
GACGCTATCCTTCTCCTGACGTGCTAG,1.64
GCTAGTGTGCCATATTTATCTGTGCTA,-0.183
ATAGGTCTCCTACTGCTTTAGTGCTAG,0.793
TTAGGTCTCGGTCTCGGTTTGTGCTAG,1.77
TCAATGATCTTCCTTCATACTGTGCTA,0.933
GACGGGATCCTACTGCTGACGTGCTAG,0.224
GACGATTCCAGTTTCGTGACGTGCTAG,3.01
GACGGACTGCTACTTCTGACGTGCTAG,0.293
GACGGACTGGTTATCCTGACGTGCTAG,-0.161
GACGGACTGGACACTGGAGACGTGCTA,-0.829
GACGGACTTGACTATCGGGACGTGCTA,-0.314

# Study 4 — technique: RNA Bind-n-Seq; molecule type: RNA; sample: in vitro; concentration: not given; relative to: input RNA pool; reading: higher = stronger binding
# Target: RING finger protein unkempt homolog, zinc fingers 1-6, GST-SBP tag (UNK, Homo sapiens, UniProt Q9C0B0, residues 30-357)
# Notes: RNA with constant flanks, human-mouse chimeric sites, ends assumed
# Shared flanks, not repeated: GGGAGUUCUACAGUCCGACGAUC … CAACAGAGGAUUGAGCAUCA
# Residues (chain): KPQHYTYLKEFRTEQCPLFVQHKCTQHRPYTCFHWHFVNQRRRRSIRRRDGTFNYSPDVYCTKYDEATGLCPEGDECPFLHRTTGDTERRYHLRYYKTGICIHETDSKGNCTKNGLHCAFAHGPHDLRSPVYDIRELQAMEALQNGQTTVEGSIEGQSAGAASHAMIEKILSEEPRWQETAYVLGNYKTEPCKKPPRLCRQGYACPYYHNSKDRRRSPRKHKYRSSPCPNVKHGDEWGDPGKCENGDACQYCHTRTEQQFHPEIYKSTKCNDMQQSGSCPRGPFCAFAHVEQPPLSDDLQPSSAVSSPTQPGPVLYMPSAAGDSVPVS
Strand,bound/input enrichment [ratio]
CUGAAAAACACAGAUAUCAAAGUUGUUGACUUUGGAAGUGCAACAUAUGAUGAUGAACAUCAUAGUACUUUGGUGUCUACCCGGCACUACAGAGCUCCCGAGGUCAUUUUGGCUUUAGGU,0.406
CGCAGAAGGUUAAAGGGUGAGAGUGGGGUGGAAGACUGUGUCAUGGCUCUGGAGACAUUGUUUAGUGUCCUGCUUUCUCUGUGCAGACUGAUGGCCCCUUACACGCCCUUUCUGACUGAG,0.0816
GUACUGCAACAGCAGGGCAAGCUGCAGGAAGCUCUGAUGCAUUAUAAGGAGGCUAUUCGAAUCAGUCCUACCUUUGCUGAUGCCUACUCUAAUAUGGGAAACACUCUAAAGGAGAUGCAG,0.174
AAUGUGGAGUUGAGUUCCUUGGCCCGGCUUCCCAGCUUAAAUAAACUCCGGAAGUUGGAACUUAGUGACAAUAUAAUUUCUGGAGGCUUGGAAGUCCUGGCAGAGAAAUGUCCAAAUCUU,0.18
GUUCGGCUCUGGGAUCAUGCUACUAUGACAGAAGUGAAAUCUCUGAAUUUUAAUAUGUCUGUUAGCAGCAUGGAGUAUAUUCCUGAGGGAGAGAUUUUGGUUAUUACUUAUGGACGAUCU,0.376
CUCAUGGCUGCAGAAACAGGAAGUGGAAAAACUGGUGCAUUUAGUAUUCCAGUUAUCCAGAUAGUGUAUGAAACUCUGAAAGACCAACAGGAAGGAAAAAAAGGAAAAACAACUAUUAAA,0.946
GGCCUGGGACCGUCCUGGGCUAGUACAAAUAGCGGCAGUGGAGGCUCGAGAGGAAAGUUUGUUAGUGGAGGCAGUGGAGAGGUCGUCAUGUACGCUCCCUUUACUCGAUAGAUGUGUUCU,0.427
CUGUGACCACAAGAUCCUACCUGAGUGUUCAGAUGGGUUGACUCCCUCCCCUUCCCUGAACCCCCCCCCACUGCCCCCCCAUCCCCCAGUGUCGGCUGAGAUGUUGCCUCUGCACGGUUC,1.32

# For quick reference, copied from above (study 1):
Strand,E-score
GCATGAC,0.428
CATGATA,0.364
CATGAGG,0.34
AACATGT,0.357
CCGTGAC,0.436
CACCTGC,0.277
ATCATGA,0.338
